Measured values gathered from unrelated publications.
Protocols differ between the studies behind these lines. ± marks the error that the study gave.
Organism: Influenza A virus

SMILES | test | system | setting | how to read | quantity | value
O=C(Nc1ccccc1SSc1ccccc1NC(=O)c1ccccc1)c1ccccc1 | – | A/NWS/33 (H1N1), mouse, bronchoalveolar lavage fluid | oral, 1 mg/mouse/day, day 14 | reference: untreated infected control | neutralizing antibody titre | 2.4 fold
CC1(C)CCC2(C(=O)NCc3ccccc3)CCC3(C)C(=CCC4C5(C)CCC(OC(=O)C6CC(OC(=O)Cc7ccc(O)c(O)c7)CN6C(=O)Cc6ccc(O)c(O)c6)C(C)(C)C5CCC43C)C2C1 (stereo not drawn) | viral replication | MDCK, A/WSN/1933 (H1N1) | 48 h | – | EC50 | > 20 µM
C=CCC1=C(C(=O)O)O[C@@H]([C@H](O)[C@H](O)CO)[C@H](NC(C)=O)[C@H]1O | viral replication | A/Paris/908/97 (H3N2) | 72 h | – | EC50 | > 5000 µM
CN(C)CC1CN(S(=O)(F)=Nc2cc(Cl)c(C(=O)N3CCO[C@@H](c4ccccc4)C3)c(Cl)c2)C1 (stereo partly drawn) | viral replication | – | 72 h | – | EC50 | 0.02 µM
C[C@@H](CO)C(=O)OCCc1ccc(O)cc1 | viral replication, inhibitor | H1N1 WSN | 10 µM | – | inhibition | 39.5%
COc1ccc(C(=O)N2CC(OC(=O)c3ccc(F)c(F)c3)CC2C(=O)OC2CCC3(C)C(CCC4(C)C3CC=C3C5CC(C)(C)CCC5(C(=O)NCc5ccccc5)CCC34C)C2(C)C)cc1OC (stereo not drawn) | – | MDCK, A/WSN/1933 (H1N1) | – | reference: CC50 over EC50 | selectivity index | > 27.6
OC[C@H]1O[C@@H](OCCc2ccccc2)[C@H](O)[C@@H](O)[C@@H]1O | viral replication, inhibitor | H1N1 WSN | 10 µM | – | inhibition | 41%
CC(=O)N[C@H]1[C@H]([C@H](O)[C@H](O)CO)OC(C(=O)O)=C(C/C=C/c2ccc(C)cc2)[C@@H]1O | viral replication | A/Paris/908/97 (H3N2) | 72 h | – | EC50 | > 1000 µM
CC(CO)C(=O)OCC(C)C(=O)OCCc1ccc(O)cc1 (stereo not drawn) | viral replication, inhibitor | H1N1 WSN | 10 µM | – | inhibition | 0%
CC1(C)CCC2(C(=O)NCc3ccccc3)CCC3(C)C(=CCC4C5(C)CCC(OC(=O)C6CC(OC(=O)c7cccc(O)c7O)CN6C(=O)c6cccc(O)c6O)C(C)(C)C5CCC43C)C2C1 (stereo not drawn) | viral replication | MDCK, A/WSN/1933 (H1N1) | 48 h | – | EC50 | 0.88 ± 0.18 µM
COc1cc(CCO)ccc1O | viral replication, inhibitor | H1N1 WSN | 10 µM | – | inhibition | 0%
CC1(C)CCC2(C(=O)NCc3ccccc3)CCC3(C)C(=CCC4C5(C)CCC(OC(=O)C6CC(OC(=O)c7ccc(O)c(O)c7)CN6C(=O)C6CC(O)C(O)C(O)C6)C(C)(C)C5CCC43C)C2C1 (stereo not drawn) | viral replication | MDCK, A/WSN/1933 (H1N1) | 48 h | – | EC50 | 0.92 ± 0.36 µM

For quick reference, copied from above:
SMILES | test | system | setting | how to read | quantity | value
C[C@@H](CO)C(=O)OCCc1ccc(O)cc1 | viral replication, inhibitor | H1N1 WSN | 10 µM | – | inhibition | 39.5%
